{"data": "Measured values of several laboratories", "note": "Numbered parts are unrelated; each lists some results of a single study. pEC50: −log10 of the molar value.", "chain of UniProt P0C264 (whole entry, looked up)": "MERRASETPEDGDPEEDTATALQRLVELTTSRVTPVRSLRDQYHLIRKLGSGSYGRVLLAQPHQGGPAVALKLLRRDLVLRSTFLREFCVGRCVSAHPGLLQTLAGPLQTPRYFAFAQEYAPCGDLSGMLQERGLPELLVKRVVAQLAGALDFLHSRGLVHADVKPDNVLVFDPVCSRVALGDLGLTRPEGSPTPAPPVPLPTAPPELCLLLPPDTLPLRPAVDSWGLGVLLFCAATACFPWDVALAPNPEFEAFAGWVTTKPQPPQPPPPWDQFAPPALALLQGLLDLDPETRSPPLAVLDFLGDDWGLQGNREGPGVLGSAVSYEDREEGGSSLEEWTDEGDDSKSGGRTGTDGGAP", "chain of UniProt O14733 (whole entry, looked up)": "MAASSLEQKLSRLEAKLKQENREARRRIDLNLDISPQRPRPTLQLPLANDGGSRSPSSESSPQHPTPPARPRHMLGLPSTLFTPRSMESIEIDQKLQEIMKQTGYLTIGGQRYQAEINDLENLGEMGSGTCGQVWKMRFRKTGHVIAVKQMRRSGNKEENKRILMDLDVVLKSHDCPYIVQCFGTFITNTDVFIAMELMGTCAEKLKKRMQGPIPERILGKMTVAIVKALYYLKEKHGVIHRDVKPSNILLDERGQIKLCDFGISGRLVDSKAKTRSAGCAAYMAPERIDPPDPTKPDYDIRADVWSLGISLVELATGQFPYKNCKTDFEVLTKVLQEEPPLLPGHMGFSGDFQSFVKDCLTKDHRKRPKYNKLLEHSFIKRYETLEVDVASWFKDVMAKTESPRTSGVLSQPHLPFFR", "chain of UniProt Q16832 (whole entry, looked up)": "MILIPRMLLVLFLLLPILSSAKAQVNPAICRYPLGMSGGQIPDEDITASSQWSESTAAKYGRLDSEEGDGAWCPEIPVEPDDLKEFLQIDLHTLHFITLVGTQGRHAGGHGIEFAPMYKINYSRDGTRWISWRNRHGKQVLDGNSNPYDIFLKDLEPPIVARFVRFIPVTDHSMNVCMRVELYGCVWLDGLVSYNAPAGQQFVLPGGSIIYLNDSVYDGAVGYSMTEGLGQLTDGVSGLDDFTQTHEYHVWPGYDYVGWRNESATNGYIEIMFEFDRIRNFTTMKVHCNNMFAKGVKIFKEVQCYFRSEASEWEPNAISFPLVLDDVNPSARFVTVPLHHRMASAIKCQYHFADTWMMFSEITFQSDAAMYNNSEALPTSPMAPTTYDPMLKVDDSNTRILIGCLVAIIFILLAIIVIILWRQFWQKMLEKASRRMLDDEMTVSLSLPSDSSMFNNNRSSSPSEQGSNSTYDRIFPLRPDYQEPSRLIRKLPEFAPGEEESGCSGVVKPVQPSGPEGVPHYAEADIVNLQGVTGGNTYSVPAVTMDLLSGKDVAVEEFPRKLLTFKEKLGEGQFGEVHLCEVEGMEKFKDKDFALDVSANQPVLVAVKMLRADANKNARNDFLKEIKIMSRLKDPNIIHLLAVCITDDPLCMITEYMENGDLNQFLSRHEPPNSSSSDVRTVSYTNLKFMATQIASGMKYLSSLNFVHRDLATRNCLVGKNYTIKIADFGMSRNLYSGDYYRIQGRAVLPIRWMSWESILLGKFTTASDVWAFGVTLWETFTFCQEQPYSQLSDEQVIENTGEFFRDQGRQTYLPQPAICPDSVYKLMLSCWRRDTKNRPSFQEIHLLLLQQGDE", "chain of UniProt P29597 (whole entry, looked up)": "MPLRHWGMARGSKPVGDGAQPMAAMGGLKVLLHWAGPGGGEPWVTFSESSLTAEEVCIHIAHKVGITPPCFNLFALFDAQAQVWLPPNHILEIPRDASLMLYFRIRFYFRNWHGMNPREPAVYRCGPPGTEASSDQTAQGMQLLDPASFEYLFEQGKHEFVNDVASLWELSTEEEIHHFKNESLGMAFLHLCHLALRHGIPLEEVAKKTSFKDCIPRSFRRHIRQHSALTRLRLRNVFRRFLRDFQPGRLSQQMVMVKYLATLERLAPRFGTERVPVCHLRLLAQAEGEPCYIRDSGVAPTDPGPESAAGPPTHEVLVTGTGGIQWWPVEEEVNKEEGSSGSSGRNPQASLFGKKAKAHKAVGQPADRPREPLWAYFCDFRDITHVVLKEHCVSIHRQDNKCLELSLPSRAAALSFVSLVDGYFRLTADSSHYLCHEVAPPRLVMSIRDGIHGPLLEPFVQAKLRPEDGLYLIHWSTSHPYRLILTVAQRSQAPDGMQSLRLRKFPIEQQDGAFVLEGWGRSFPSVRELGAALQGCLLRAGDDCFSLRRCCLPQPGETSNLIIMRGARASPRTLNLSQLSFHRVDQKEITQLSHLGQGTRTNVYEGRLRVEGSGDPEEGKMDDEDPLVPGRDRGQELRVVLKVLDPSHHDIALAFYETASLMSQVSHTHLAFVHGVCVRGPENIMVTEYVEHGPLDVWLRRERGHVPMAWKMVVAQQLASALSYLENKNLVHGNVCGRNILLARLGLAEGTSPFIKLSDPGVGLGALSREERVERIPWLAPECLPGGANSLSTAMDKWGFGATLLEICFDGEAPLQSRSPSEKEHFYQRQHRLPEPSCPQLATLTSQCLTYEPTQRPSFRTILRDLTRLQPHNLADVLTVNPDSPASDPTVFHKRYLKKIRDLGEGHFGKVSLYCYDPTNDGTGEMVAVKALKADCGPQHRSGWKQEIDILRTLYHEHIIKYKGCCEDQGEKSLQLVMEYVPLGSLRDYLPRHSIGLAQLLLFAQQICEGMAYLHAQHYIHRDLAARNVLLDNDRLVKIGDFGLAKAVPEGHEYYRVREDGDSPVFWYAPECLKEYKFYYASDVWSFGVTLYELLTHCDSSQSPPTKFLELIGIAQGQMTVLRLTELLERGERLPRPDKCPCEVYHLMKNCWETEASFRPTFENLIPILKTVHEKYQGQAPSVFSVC"}
{"data": "Study 1", "target": "Beta-1 adrenergic receptor (ADRB1, Homo sapiens, UniProt P08588)", "mode": "agonist", "chain of UniProt P08588 (whole entry, looked up)": "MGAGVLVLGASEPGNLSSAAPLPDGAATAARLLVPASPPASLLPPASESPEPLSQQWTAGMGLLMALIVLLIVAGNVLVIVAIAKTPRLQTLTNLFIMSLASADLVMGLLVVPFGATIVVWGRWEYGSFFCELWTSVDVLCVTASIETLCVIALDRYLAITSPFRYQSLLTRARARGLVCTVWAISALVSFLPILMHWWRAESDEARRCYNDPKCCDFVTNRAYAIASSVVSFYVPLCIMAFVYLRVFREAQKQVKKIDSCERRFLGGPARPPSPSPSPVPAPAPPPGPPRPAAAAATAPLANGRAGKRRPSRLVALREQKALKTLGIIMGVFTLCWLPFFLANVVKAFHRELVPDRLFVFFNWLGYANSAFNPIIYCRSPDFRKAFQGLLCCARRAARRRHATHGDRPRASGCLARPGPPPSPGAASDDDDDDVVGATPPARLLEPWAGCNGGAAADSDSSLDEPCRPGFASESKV"}
{"Compound": "c1cncc(-c2cc(-c3cccc(N4CCOCC4)c3)cn3cncc23)c1", "pEC50": "≤ 4.00"}
{"Compound": "O=C(Nc1cccc(C(F)(F)F)c1)N[C@H]1CO[C@H]2[C@@H]1OC[C@@H]2Nc1nccc(-c2ccc(-c3ccccc3)cc2)n1", "pEC50": "≤ 4.00"}
{"Compound": "Cc1cc(=O)oc2cc(CN(C)CC(C)N3CCOCC3)ccc12 (stereo not drawn)", "pEC50": "≤ 4.00"}
{"Compound": "Cc1cccc(NC(=O)c2sc3nc(-c4cc5ccc(O)cc5oc4=O)[nH]c(=O)c3c2C)c1", "pEC50": "≤ 4.00"}
{"Compound": "CC(C)n1cc(-c2cc(C(=O)N3CCC(C)(C)C3)c3ccc(F)cc3n2)cn1", "pEC50": "≤ 4.00"}
{"data": "Study 2", "target": "Protein-tyrosine kinase 6 (PTK6, Homo sapiens, UniProt Q13882)", "effect on": "enzyme activity", "mode": "inhibitor", "tested at": "0.5 µM", "reference": "control", "chain of UniProt Q13882 (whole entry, looked up)": "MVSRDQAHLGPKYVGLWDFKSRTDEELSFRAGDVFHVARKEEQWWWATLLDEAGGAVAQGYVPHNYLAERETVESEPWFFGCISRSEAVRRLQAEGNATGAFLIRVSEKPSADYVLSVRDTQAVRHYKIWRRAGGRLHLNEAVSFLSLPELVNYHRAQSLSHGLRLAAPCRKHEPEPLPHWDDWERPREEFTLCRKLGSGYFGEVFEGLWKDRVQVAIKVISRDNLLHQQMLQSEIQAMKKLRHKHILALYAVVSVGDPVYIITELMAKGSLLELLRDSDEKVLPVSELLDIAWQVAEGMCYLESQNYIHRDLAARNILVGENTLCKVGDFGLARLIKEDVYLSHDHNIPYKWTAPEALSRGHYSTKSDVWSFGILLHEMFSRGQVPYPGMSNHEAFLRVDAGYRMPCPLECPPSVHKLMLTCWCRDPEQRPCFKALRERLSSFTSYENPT"}
{"SMILES": "Cn1nc2c3c(cccc31)C(=O)c1ccccc1-2", "remaining activity [%]": 91.8}
{"SMILES": "N#C/C(=C\\c1ccc(O)c(O)c1)C(=O)NCc1ccccc1", "remaining activity [%]": 86.7}
{"SMILES": "O=C1c2ccccc2-c2n[nH]c3cccc1c23", "remaining activity [%]": 94.1}
{"SMILES": "N#Cc1c(NC(=O)c2cccc3ccccc23)sc2c1CCCC2", "remaining activity [%]": 89.8}
{"SMILES": "C[C@@H]1CCN(C(=O)CC#N)C[C@@H]1N(C)c1ncnc2[nH]ccc12", "remaining activity [%]": 101}
{"SMILES": "Nc1cccc(-c2cc3c(Oc4cccc(O)c4)ncnc3[nH]2)c1", "remaining activity [%]": 11.1}
{"SMILES": "COc1cc2ncnc(Nc3cccc(Cl)c3)c2cc1OC", "remaining activity [%]": 39}
{"SMILES": "Cc1cc2ncc(-c3ccccc3)nc2cc1C", "remaining activity [%]": 93.6}
{"SMILES": "O=c1cc(-c2cccc3c2Sc2ccccc2S3)oc(N2CCOCC2)c1", "remaining activity [%]": 90.6}
{"SMILES": "Cc1cn(-c2cc(NC(=O)c3ccc(C)c(Nc4nccc(-c5cccnc5)n4)c3)cc(C(F)(F)F)c2)cn1", "remaining activity [%]": 70.4}
{"SMILES": "O=C1C(Cl)=C(N2C(=O)CCC2=O)C(=O)c2ccccc21", "remaining activity [%]": 94.8}
{"SMILES": "CN([C@@H](Cc1ccc(OS(=O)(=O)c2cccc3cnccc23)cc1)C(=O)N1CCN(c2ccccc2)CC1)S(=O)(=O)c1cccc2cnccc12", "remaining activity [%]": 89.7}
{"SMILES": "Ic1cccc(CSc2nnc(-c3ccncc3)o2)c1", "remaining activity [%]": 104}
{"data": "Study 3", "Structure (SMILES)": "CNC(=O)c1ccc(Nc2ncc(C(F)(F)F)c(NCc3nccnc3N(C)S(C)(=O)=O)n2)cc1", "effect on": "cell-free assay", "method": "competition with immobilised ligand", "tested at": "0.1 µM"}
{"target": "MAP2K7 (Homo sapiens, UniProt O14733)", "remaining binding": "97%"}
{"target": "Tyrosine-protein kinase ABL1, non-phosphorylated (ABL1, Homo sapiens, UniProt P00519, T315I)", "remaining binding": "93%"}
{"target": "Non-receptor tyrosine-protein kinase TYK2, JH2 (TYK2, Homo sapiens, UniProt P29597)", "remaining binding": "87%"}
{"target": "SBK3 (Homo sapiens, UniProt P0C264)", "remaining binding": "100%"}
{"target": "DDR2 (Homo sapiens, UniProt Q16832)", "remaining binding": "100%"}
{"data": "Study 4", "species": "mouse", "sample": "microsomes or S9", "tested at": "2 µM", "time": "0.5 h"}
{"SMILES": "Fc1ccc(-c2c(-n3cnnc3)nc3ccccc3c2Cl)cc1", "remaining compound": "88.3%"}
{"SMILES": "Cc1ccc(CNc2ncc(-c3ccccc3F)c(-c3nccn3C)n2)cc1", "remaining compound": "5.85%"}
{"SMILES": "CCCc1nnc(-c2cc3ccccc3n2Cc2ccccc2)o1", "remaining compound": "0.0177%"}
{"data": "Mixed results"}
{"Structure (SMILES)": "CC(C)n1cnc(-c2ccc(F)cc2)c1-c1ncc(C(=O)Nc2ccc(N3CCN(C)CC3)cc2)[nH]1", "method": "phase 2a trial", "species": "idiopathic pulmonary fibrosis patients", "dose": "60 mg once daily", "setting": "adverse event grade 4", "quantity": "patients with cardiac disorders", "value": "0%"}
